{"data": "Experimental data from different studies", "note": "Numbered parts are unrelated; each lists some results of a single study. Substitutions count along the parent as printed."}
{"data": "Block 1", "target": "ATF1, bZIP domain (human)", "technique": "DHFR protein complementation", "matrix": "yeast", "notes": "single substitutions, most at no-binding floor", "reference": "wild-type JUN-FOS pair", "reading": "higher = stronger binding", "starting sequence": "JUN, bZIP domain (human); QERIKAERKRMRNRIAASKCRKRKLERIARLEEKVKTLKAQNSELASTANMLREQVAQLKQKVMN; partner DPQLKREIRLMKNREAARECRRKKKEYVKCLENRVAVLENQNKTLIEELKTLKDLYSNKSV"}
{"Change": "S43L", "binding fitness [natural log]": -1.51}
{"Change": "A40G", "binding fitness [natural log]": -1.54}
{"Change": "E44G", "binding fitness [natural log]": -1.54}
{"Change": "S47Y", "binding fitness [natural log]": -1.42}
{"Change": "A40N", "binding fitness [natural log]": -1.4}
{"Change": "N42G", "binding fitness [natural log]": -1.53}
{"Change": "A29T", "binding fitness [natural log]": -1.51}
{"Change": "A57W", "binding fitness [natural log]": -1.39}
{"data": "Block 2", "target": "Ras GTPase-activating protein-binding protein 1, RRM domain (G3BP1, Homo sapiens, UniProt Q13283)", "technique": "RNA Bind-n-Seq", "molecule type": "RNA", "matrix": "in vitro", "concentration": "1 µM", "notes": "whole 134-nt RNA, ends assumed", "with": "150 mM KCl", "reference": "input library", "reading": "higher = stronger binding", "constant ends, left off below": "GGGAGUUCUACAGUCCGACGAUC … UGGAAUUCUCGGGUGUCAAGG", "UniProt Q13283, sequence (whole entry, looked up)": "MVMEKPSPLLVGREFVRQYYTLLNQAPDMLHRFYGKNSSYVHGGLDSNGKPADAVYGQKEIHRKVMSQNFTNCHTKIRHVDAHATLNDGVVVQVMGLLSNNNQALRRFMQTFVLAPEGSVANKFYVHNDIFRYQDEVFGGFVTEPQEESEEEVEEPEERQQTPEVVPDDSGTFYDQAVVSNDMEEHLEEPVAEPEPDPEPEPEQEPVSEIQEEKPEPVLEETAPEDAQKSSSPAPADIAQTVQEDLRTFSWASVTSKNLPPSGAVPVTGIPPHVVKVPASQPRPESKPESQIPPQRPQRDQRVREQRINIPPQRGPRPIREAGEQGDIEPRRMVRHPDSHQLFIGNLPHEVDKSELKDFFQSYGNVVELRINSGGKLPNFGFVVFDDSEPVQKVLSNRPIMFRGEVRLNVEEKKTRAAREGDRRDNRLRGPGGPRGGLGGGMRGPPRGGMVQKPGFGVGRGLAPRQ"}
{"Sequence": "UAACUUUAGAGGAGGAUCUGAUGGAUAUGGCAGUGGACGUGGAUUUGGGGAUGGCUAUAAUGGGUAUGGAGGAGGACCUGGAGGUGGCAG", "log2 enrichment": -0.21}
{"Sequence": "CAAGUCCUGUGCUACACAUCGUAUGUACCGAAUCGGGUUUUUGGGAAAGGGAGGGAAAGUAUUAUGUUACGCCGUUCGGAUCUGCACUUC", "log2 enrichment": 0.606}
{"Sequence": "GGUGGAAUCCAUAGAGCUCCCCAUGGACAACAAGACCAAUAAGAGGCGUGGGUUCUGCUUUAUUACCUUUAAGGAAGAAGAACCAGUGAA", "log2 enrichment": -0.446}
{"Sequence": "CUCAAGUCCUGUGCUACACAUCGUAUGUACCGAAUCGGGUGGGGUGGGGUGGGAAAGUAUUAUGUUACGCCGUUCGGAUCUGCACUUCCA", "log2 enrichment": 0.679}
{"Sequence": "CAAGUCCUGUGCUACACAUCGUAUGUACCGAAUCGGGGAGGGGAAAGGGGAGGGGAAAGUAUUAUGUUACGCCGUUCGGAUCUGCACUUC", "log2 enrichment": 1.31}
{"Sequence": "GCAGGAAGUAAAAACAAAUGGAAUUGCUUCGGAUAGUGGCAGGGGUGGGGGUUGCUAAGGAAAGGGUGGGAUGGGAGUGGGUAAAGAGUU", "log2 enrichment": 1.27}
{"Sequence": "UGUGCUACACAUCGUAUGUACCGAAUCGGGGAAAAAAAGGGGAAAAAAAGGGGUUUUUGGGGAAAGUAUUAUGUUACGCCGUUCGGAUCU", "log2 enrichment": 1.16}
{"Sequence": "CACAGACAACGCGCACCCACACAGACACAGAGGGAAGGGGUUGGGAUGGGGACAGGGUGCACAGCAGGGCGGGGUAGGACCCCAGCCCCU", "log2 enrichment": -0.187}
{"data": "Block 3", "target": "CCND3, cyclin fold, Cln2 fusion (human)", "technique": "yeast growth competition, sequencing", "matrix": "yeast", "notes": "weak parent motif", "reference": "not given", "reading": "higher = stronger binding", "starting sequence": "viral docking peptide; TSVRRALFTGGSD; partner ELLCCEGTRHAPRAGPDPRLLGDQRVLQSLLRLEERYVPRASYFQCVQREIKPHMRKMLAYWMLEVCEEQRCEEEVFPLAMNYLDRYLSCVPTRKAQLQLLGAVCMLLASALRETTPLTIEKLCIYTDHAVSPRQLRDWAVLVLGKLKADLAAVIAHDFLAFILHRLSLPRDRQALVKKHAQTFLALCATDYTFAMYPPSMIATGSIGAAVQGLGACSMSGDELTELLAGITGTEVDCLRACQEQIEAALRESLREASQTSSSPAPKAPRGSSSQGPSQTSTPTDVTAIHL"}
{"Change": "T9R", "normalised enrichment score": 0.269}
{"Change": "A6E", "normalised enrichment score": 0.0584}
{"Change": "V3K", "normalised enrichment score": 0.37}
{"Change": "S12L", "normalised enrichment score": 0.0351}
{"Change": "F8N", "normalised enrichment score": 0.23}
{"Change": "G11L", "normalised enrichment score": 0.0854}
{"Change": "G10I", "normalised enrichment score": -0.0323}
{"Change": "G11N", "normalised enrichment score": -0.331}
{"Change": "T9G", "normalised enrichment score": 0.488}
{"Change": "G10C", "normalised enrichment score": -0.111}
{"Change": "G11F", "normalised enrichment score": 0.312}
{"Change": "G10P", "normalised enrichment score": -0.128}
{"Change": "G10D", "normalised enrichment score": -0.213}
{"data": "Block 4", "target": "Histone acetyltransferase KAT6A, both winged helices, GST fusion (KAT6A, Homo sapiens, UniProt Q92794, residues 1-181)", "technique": "protein binding microarray", "molecule type": "double-stranded DNA, one strand shown", "matrix": "in vitro", "concentration": "not given", "notes": "8-mer, flanks averaged, mean of 2 arrays, mostly near background", "reference": "not given", "reading": "higher = stronger binding", "Residues (chain)": "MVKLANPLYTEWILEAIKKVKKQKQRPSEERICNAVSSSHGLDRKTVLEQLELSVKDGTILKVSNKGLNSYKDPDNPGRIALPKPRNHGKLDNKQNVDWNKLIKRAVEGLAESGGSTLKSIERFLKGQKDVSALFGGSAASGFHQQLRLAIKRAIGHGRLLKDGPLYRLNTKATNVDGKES"}
{"Sequence": "ATCTGTAA", "E-score": -0.00768}
{"Sequence": "ACTATTTA", "E-score": 0.00642}
{"Sequence": "ATTCGTGG", "E-score": -0.138}
{"Sequence": "AGCTGACA", "E-score": -0.0638}
{"Sequence": "GAATGAAA", "E-score": 0.0316}
{"Sequence": "CCATAGAA", "E-score": -0.0666}
{"Sequence": "CTCACTGA", "E-score": -0.168}
{"Sequence": "ATTGTATA", "E-score": 0.0474}
{"note": "Excerpt of the above (block 3):"}
{"Change": "S12L", "normalised enrichment score": 0.0351}
{"Change": "G10C", "normalised enrichment score": -0.111}
{"Change": "G11L", "normalised enrichment score": 0.0854}
{"Change": "G10P", "normalised enrichment score": -0.128}
{"Change": "G11F", "normalised enrichment score": 0.312}
